Measured values of several laboratories.
Numbered parts are unrelated; each lists some results of a single study. Positions count from the first letter of the parent shown.

Block 1 — technique: RNA Bind-n-Seq; molecule type: RNA; matrix: in vitro; concentration: 1 µM; setting: whole 134-nt RNA, ends assumed; together with: 150 mM KCl; reference: input library; reading: higher = stronger binding
Target: Ras GTPase-activating protein-binding protein 1, RRM domain (G3BP1, Homo sapiens, UniProt Q13283)
Chain of UniProt Q13283 (whole entry, looked up): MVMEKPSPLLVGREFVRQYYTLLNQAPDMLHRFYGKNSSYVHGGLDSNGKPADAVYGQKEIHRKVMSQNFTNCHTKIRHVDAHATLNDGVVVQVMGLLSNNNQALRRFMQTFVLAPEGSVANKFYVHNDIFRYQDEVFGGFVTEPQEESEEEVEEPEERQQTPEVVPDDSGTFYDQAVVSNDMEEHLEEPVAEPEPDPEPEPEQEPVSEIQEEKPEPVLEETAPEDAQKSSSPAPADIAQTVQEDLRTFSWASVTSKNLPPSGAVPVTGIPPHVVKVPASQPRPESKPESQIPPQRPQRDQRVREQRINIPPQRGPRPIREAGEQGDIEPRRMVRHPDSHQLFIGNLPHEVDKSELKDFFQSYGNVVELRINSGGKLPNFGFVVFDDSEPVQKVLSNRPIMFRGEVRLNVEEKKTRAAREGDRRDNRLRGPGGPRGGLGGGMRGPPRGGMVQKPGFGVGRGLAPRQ
Sequence	log2 enrichment
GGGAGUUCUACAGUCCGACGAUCUCCUCAAGUCCUGUGCUACACAUCGUAUGUACCGAAUCGGUGGAGGAAAGGAAAGUAUUAUGUUACGCCGUUCGGAUCUGCACUUCCAGCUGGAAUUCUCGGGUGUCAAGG	-0.116
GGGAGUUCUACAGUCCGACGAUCACCAUGCAGGUGGGCAUCUUUGGGAAGUGGGGCAAGGGGGGGAUAGGGAGGGGGGUGACACUUUGGGAACAGGUGGUCCCAGGUCGUUUCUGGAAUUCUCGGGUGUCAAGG	0.922
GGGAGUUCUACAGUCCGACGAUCCUCAAGUCCUGUGCUACACAUCGUAUGUACCGAAUCGGAGGUUUGGUUUUUGGAAAGUAUUAUGUUACGCCGUUCGGAUCUGCACUUCCAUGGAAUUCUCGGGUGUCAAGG	-0.227
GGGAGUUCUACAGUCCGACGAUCUCCUGUGCUACACAUCGUAUGUACCGAAUCGGGGUUUUUGGGGAAAAAAAGGGGUGGGGAAAGUAUUAUGUUACGCCGUUCGGAUCUGCAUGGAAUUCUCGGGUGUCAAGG	0.57
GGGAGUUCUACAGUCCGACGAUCGCAGGAACUAAAAACAAAUGGAAAUGCUUCGGAUAGUGGCAGGGGUGGGGGUUGCUAAGGAAAGGGUGGGAUGGGAGUGGGUAAAGAGUUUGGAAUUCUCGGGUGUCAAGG	1.06
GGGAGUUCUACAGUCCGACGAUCAGUCCUGUGCUACACAUCGUAUGUACCGAAUCGGGAAAGGGAAAGGGUUUUUUUGGGAAAGUAUUAUGUUACGCCGUUCGGAUCUGCACUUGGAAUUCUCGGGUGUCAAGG	0.303
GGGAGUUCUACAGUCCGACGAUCCAAGUCCUGUGCUACACAUCGUAUGUACCGAAUCGGGAGGGAAAGGGAAAAAGGGAAAGUAUUAUGUUACGCCGUUCGGAUCUGCACUUCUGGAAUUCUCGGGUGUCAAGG	0.916
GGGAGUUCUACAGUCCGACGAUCACUAUGCAGGUGGGCAUCUUUGGGAAGUGGGGCAAGGGGGGGAUAGGGAGGGGGGUAACACUUUGGGAACAGGUGGUCCCAGGUCGUUUCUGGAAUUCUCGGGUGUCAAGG	-0.567
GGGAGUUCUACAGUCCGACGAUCUCAAGUCCUGUGCUACACAUCGUAUGUACCGAAUCGGGAAAGGGAAAGGGUGGGAAAGUAUUAUGUUACGCCGUUCGGAUCUGCACUUCCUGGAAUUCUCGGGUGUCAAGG	0.678
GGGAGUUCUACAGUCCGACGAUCAGUCCUGUGCUACACAUCGUAUGUACCGAAUCGUGUGUGUGUGUGUGUGUGUGUGUGAAAGUAUUAUGUUACGCCGUUCGGAUCUGCACUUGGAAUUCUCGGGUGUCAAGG	0.156
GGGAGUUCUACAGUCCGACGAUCUGGCCCUGGUGGCAUGCGGGGAGGAAGAAGUGGCCUCAUGGAUCGUGGUGGUCCCGGUGGAAUGUUCAGAGGUGGCCGUGGUGGAGACAGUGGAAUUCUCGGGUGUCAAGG	0.837
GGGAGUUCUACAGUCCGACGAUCAAGUCCUGUGCUACACAUCGUAUGUACCGAAUCGGAAAAGGGGAAAAGGAAAAGGGAAAGUAUUAUGUUACGCCGUUCGGAUCUGCACUUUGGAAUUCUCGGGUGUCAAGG	-0.204
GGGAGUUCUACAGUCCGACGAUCUGGCCCUGGUGGCAUGCGGGGAGGAAGAGGUGGCCUCAUGGAUCGUGGUGGUCCCGGUGGAAUGUUCAGAAGUGGCCGUGGUGGAGACAGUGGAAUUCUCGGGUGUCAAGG	1.39
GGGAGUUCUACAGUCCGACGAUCACCAUGCAGGUGGGCAUCUUUGGGAAGUGGGGCAAGGGGGGGAUAGGGAGGGGGGUAACACUUUGGGAACAAAAGGUCCCAGGUCGUUUCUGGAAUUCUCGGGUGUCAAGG	-0.378

Block 2 — technique: DHFR PCA, deep sequencing; matrix: yeast; together with: (+)-ABA 58 µM; reference: wild-type fitted maximum; reading: higher = stronger binding
Target: ABI1, truncated, D143A, DHFR fusion (Arabidopsis thaliana)
Setting: methotrexate growth selection, single substitutions
Parent: PYL1, truncated, DHFR fusion (Arabidopsis thaliana); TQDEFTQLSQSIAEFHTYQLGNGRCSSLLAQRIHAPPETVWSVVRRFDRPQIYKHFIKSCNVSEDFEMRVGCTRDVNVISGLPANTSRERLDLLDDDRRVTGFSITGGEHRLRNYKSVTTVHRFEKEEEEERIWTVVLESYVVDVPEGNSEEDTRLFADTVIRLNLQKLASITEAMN; partner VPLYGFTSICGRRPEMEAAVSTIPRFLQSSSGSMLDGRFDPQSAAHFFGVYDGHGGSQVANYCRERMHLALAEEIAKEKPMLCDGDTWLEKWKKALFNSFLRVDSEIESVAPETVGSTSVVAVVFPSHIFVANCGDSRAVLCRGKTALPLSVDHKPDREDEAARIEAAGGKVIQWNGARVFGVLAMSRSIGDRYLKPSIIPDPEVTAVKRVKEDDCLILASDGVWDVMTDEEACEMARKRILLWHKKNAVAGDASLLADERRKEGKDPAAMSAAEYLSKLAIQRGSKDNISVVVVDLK
Change	relative binding score [%]
E38I	32.7
E38H	65.4
Y53K	4.45
R98P	14.5
T154P	6.25
N177Q	84.7
E38Q	75.1
L94R	11.9

Block 3 — technique: protein-binding microarray; molecule type: double-stranded DNA, one strand shown; matrix: in vitro; concentration: 250 nM; setting: 60-bp whole probe; together with: salmon DNA 0.4 mg/ml; reference: random background probes; reading: higher = stronger binding; all sequences stand within: GCCTAGCAC … GTCTTGATTCGCTTGACGCTGCTG
Target: Interferon regulatory factor 7, full length, phosphomimetic (IRF7, Homo sapiens, UniProt Q92985, residues 1-503, S101K/S471D/S472D/S475D/S476D/S477D/S483D/S484D/S487D)
Chain of UniProt Q92985 (whole entry, unmodified, looked up): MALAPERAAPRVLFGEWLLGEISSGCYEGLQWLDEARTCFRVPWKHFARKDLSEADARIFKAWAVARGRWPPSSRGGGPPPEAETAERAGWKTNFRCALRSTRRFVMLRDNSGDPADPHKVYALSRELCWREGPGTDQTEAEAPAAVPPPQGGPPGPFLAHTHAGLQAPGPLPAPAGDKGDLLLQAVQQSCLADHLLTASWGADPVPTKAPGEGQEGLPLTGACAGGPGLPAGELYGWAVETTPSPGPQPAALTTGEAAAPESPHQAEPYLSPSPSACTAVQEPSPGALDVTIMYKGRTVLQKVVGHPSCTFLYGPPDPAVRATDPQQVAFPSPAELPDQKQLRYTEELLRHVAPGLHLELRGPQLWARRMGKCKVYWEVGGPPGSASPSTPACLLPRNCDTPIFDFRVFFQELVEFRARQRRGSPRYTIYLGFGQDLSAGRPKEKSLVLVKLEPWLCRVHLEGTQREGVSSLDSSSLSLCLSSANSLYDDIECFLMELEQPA
Sequence	log fluorescence [z-score]
TCCATTTTGGTTTTCATTATGTGCTAG	1.22
TCAAGAATGGGGTTTGCAACTGTGCTA	-0.719
TTAGGTCTCCTTATCCTTTAGTGCTAG	0.693
TTAGATTTCAGACGGGATTAGTGCTAG	-0.072
CTTTCTTTATGCACTCTCTACGTGCTA	1.89
GTGTATATACTATATGCATGTGTGCTA	0.233
TCACCTCTGGGCTGTTTGACTGTGCTA	-0.542
GTTTGGGTCTTGTCTGGAGTCGTGCTA	0.442
GACGATTCCAGTTTCGGGACGTGCTAG	3.54
TCAATTTTTTTTCACTAACTGTGCTAG	0.271
CAGGCAGGAGAAGTGAATGAGTGCTAG	-0.885
GACGGGATCCTTTTCCTGACGTGCTAG	0.69
TTAGGACTGGACTGTCGGTTAGTGCTA	-0.301
GACGATCTCAGTAACGAGACGTGCTAG	-0.019
AAATGTGTTAGAAACAGGTTGTGCTAG	-0.338
TTAGATATCAGTTTTGATTAGTGCTAG	0.878

Mixed results
Molecule	target	test	system	conditions	how to read	endpoint	result
PhoQ, residues 284 288 289 292 302 303 SIHLQL	PhoP, residues 12 14 15 18 19 LHATL (Escherichia coli, UniProt P23836)	Sort-seq, refers to: YFP reporter	E. coli	PhoQ-PhoP variant library, together with: 10 µM Mg2+	reference: high Mg2+ state, higher = stronger signaling	fold induction	3.47

Repeated from above (block 3):
Sequence	log fluorescence [z-score]
GTGTATATACTATATGCATGTGTGCTA	0.233
TTAGATATCAGTTTTGATTAGTGCTAG	0.878
